# Assay results of several laboratories.
# Compare with care: the assays were run in different laboratories. ± gives the spread as reported.
# B1: enzyme N77A (Streptomyces parvus, UniProt A0A7K3RVR3); chain MYVPEQYRPRDASWTLELIRSNPLALLVTNGPQHPWATHVPVLFAEEPDGPEGPDGLDATGDDLVGRRLLGHLNLMAPHWEALAGAGHALLVFQGPGSYVSPTVYETAPAAPTWDFTSVHVHGALRLIDDPDDLRKIVQATVRAYEREVGTDWDMSESLEYFERLLPGVRGFEIKIESVDSMFKLSQEQLPETVTKVIDSFRRSDGGRRQELATMIERAASD
# Chain of UniProt P51956 (whole entry, looked up): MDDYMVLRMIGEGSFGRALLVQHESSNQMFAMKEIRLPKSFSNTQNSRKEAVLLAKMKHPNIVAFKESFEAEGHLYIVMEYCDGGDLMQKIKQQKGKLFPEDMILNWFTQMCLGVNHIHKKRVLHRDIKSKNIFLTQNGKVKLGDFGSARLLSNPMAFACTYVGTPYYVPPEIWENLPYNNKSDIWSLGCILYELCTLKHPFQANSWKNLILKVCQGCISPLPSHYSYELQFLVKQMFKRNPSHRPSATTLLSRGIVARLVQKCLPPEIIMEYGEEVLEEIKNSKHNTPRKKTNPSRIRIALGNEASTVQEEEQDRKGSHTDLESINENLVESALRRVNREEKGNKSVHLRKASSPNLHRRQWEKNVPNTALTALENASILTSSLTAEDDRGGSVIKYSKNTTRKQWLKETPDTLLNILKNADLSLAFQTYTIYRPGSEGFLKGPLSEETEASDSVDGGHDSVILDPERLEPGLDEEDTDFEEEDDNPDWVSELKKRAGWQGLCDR
Substance,tested on,test,test system,setting,how to read,measurement,result
CC(C)C[C@@H]1NC(=O)[C@H](CC(=O)O)NC(=O)CNC(=O)[C@H](CCCNC(=N)N)NC(=O)[C@H](Cc2ccccc2)NC(=O)[C@H](CCCCNC(=O)CCc2cn(CCCNC(=O)CCC(C(=O)O)N3CCN(CC(=O)O)CCN(CC(=O)O)CCN(CC(=O)O)CC3)nn2)N(C)C(=O)[C@H]2CCCN2C(=O)[C@H](Cc2ccccc2)NC(=O)[C@H](C)NC1=O (stereo partly drawn),,,"female CB17 SCID mice, tumour and blood","intravenous, dose not given, 90 min, 177Lu-labelled",baseline: tumour over blood,tissue-to-tissue ratio,7 ± 1.6
O=C1NC2(CC2)COc2ncc(F)cc2[C@H]2COCCN2c2ccn3ncc1c3n2,,,"Sprague-Dawley rat, female, serum","oral, 5 mg/kg/day, end of recovery, 4-week subacute toxicity",,serum sodium,146 ± 1 mmol/L
CC(C)C[C@@H]1NC(=O)[C@H](CC(=O)O)NC(=O)CNC(=O)[C@H](CCCNC(=N)N)NC(=O)[C@H](Cc2ccccc2)NC(=O)[C@H](CCCCNC(=O)CCc2cn(CCCNC(=O)CN3CCN(CC(=O)O)CCN(CC(=O)O)CCN(CC(=O)O)CC3)nn2)N(C)C(=O)[C@H]2CCCN2C(=O)[C@H](Cc2ccccc2)NC(=O)[C@H](C)NC1=O,,,"female CB17 SCID mice, tumour and kidneys","intravenous, dose not given, 90 min, 177Lu-labelled",baseline: tumour over kidneys,tissue-to-tissue ratio,0.2 ± 0.1
CN[C@H](CC(C)C)C(=O)N[C@H]1C(=O)N[C@@H](CC(N)=O)C(=O)N[C@H]2C(=O)N[C@H]3C(=O)N[C@H](C(=O)N[C@H](C(=O)NCc4cn(CC(=O)N[C@H](C(=O)N[C@@H](CCN)C(=O)N[C@H]5CCNC(=O)[C@H]([C@@H](C)O)NC(=O)[C@H](CCN)NC(=O)[C@H](CCN)NC(=O)[C@H](CC(C)C)NC(=O)[C@@H](CC(C)C)NC(=O)[C@H](CCN)NC5=O)[C@@H](C)O)nn4)c4cc(O)cc(O)c4-c4cc3ccc4O)[C@H](O)c3ccc(c(Cl)c3)Oc3cc2cc(c3O[C@@H]2O[C@H](CO)[C@@H](O)[C@H](O)[C@H]2O[C@H]2C[C@](C)(N)[C@H](O)[C@H](C)O2)Oc2ccc(cc2Cl)[C@H]1O,sheep erythrocytes,,,"512 µg/mL, 37 °C",baseline: Triton X-100,hemolysis,< 5%
O=C(O)CC[C@H](NC(=O)N[C@@H](CCCCNC(=O)[C@H](Cc1ccc2ccccc2c1)NC(=O)[C@H]1CC[C@H](CNC(=O)CN2CCN(CC(=O)O)CCN(CC(=O)O)CCN(CC(=O)O)CC2)CC1)C(=O)O)C(=O)O [terbium-161 labelled],,,,pH 7.4,,logD,-2.63 ± 0.02
CC[C@H](C)[C@H](NC(=O)[C@H](CO)NC(=O)[C@H](Cc1ccc(O)cc1)NC(=O)[C@H](Cc1ccc(O)cc1)NC(=O)[C@H](CC(N)=O)NC(=O)CNC(=O)[C@H](CO)NC(=O)[C@H](Cc1ccc(O)cc1)NC(=O)[C@H](CO)NC(=O)[C@H](CO)NC(=O)[C@H](CC(N)=O)NC(=O)COCCOCCNC(=O)CN1CCN(CC(=O)O)CCN(CC(=O)O)CCN(CC(=O)O)CC1)C(=O)N[C@@H](CC(C)C)C(N)=O [copper-64 labelled],,dynamic PET,"tamoxifen-induced PDAC mouse model, metastases","17.5 min, CLDN4-expressing tumours",,maximum metastasis uptake,19.3 %IA/cc
B1 (enzyme N77A),N[C@@H](CCCNO)C(=O)O,steady-state kinetics,,"pH 8, 25 °C, with: heme",,Km,950 µM
N=C(N)NCCC[C@@H]1NC(=O)[C@H](CCCCNC(=O)CCC(NC(=S)Nc2ccc(CC3CN(CC(=O)O)CCN(CC(=O)O)CCN(CC(=O)O)CCN3CC(=O)O)cc2)C(=O)NCCCC[C@@H]2NC(=O)[C@@H](Cc3ccc(O)cc3)NC(=O)[C@H](CC(=O)O)NC(=O)CNC(=O)[C@H](CCCNC(=N)N)NC2=O)NC(=O)[C@@H](Cc2ccc(O)cc2)NC(=O)[C@H](CC(=O)O)NC(=O)CNC1=O (stereo partly drawn) [scandium-44 labelled],,PET imaging,"female athymic nude mouse, liver","intravenous, 2 h, U-87 MG xenograft, with: cRGD 50 mg/kg blocking",,tissue uptake,0.11 ± 0.02 %ID/g
CC(C)(C)C(=O)OCOP(=O)(OCOC(=O)C(C)(C)C)C1CCCN(O)C1=O (stereo not drawn),NCI/ADR-RES,cell growth,,,,TGI,3.55 µM
CS(C)(=O)=Nc1ccc(-c2ccc(-c3nc4cc(O[C@@H]5CO[C@H]6[C@@H]5OC[C@H]6O)[nH]c4cc3F)cc2)cc1,"NEK3 (Homo sapiens, UniProt P51956)","enzyme activity, inhibitor",,10 µM,,inhibition,1%
COc1ccccc1-c1n[nH]c2nc(NC3CCN(C(=O)Cc4ccc(F)cc4F)CC3)ncc12,,"bead binding, competition bead pull-down, measured: LMJF.21.1552",Leishmania donovani axenic amastigote extract,10 µM,baseline: vehicle,relative abundance,0.98
C[C@@H](O)[C@@H]1NC(=O)[C@@H](NC(=O)CCOCCOCCOCCOCCNC(=O)c2ccc(NN)nc2)CSSC[C@@H](C(=O)O)NC(=O)[C@H](Cc2c[nH]cn2)NC(=O)[C@H](CO)NC(=O)[C@H](Cc2ccccc2)NC(=O)[C@@H]2CCCN2C(=O)[C@H](CO)NC(=O)[C@@H]2CCCN2C1=O [technetium-99m labelled],,,"mouse HCT-116 xenograft, tumor","intravenous, 37 MBq, postmortem after imaging",,tissue uptake,0.87 ± 0.21 %ID/g

# Excerpt of the above:
Substance,tested on,test,test system,setting,how to read,measurement,result
CS(C)(=O)=Nc1ccc(-c2ccc(-c3nc4cc(O[C@@H]5CO[C@H]6[C@@H]5OC[C@H]6O)[nH]c4cc3F)cc2)cc1,"NEK3 (Homo sapiens, UniProt P51956)","enzyme activity, inhibitor",,10 µM,,inhibition,1%
B1 (enzyme N77A),N[C@@H](CCCNO)C(=O)O,steady-state kinetics,,"pH 8, 25 °C, with: heme",,Km,950 µM
